Measurements gathered from unrelated publications.
Protocols differ between the studies behind these lines. Values joined by “and” are separate records of one study, mostly repeats; a detail may differ. ± gives the spread as reported.

SMILES	assay	system	setting	how to read	quantity	result
CC(=O)N[C@H](CCCCNC(=O)C(C)F)C(=O)N[C@@H](CS)C(=O)N[C@@H](CS)C(=O)N[C@@H](CCC(=O)O)C(=O)N[C@@H](Cc1c[nH]cn1)C(=O)N[C@H](Cc1ccccc1)C(=O)N[C@@H](CCCNC(=N)N)C(=O)N[C@@H](Cc1c[nH]c2ccccc12)C(=O)N[C@@H](CS)C(=O)N[C@@H](CCCNC(=N)N)C(=O)N1CCC[C@H]1C(=O)N[C@H](C(N)=O)C(C)C (some centres unmarked) [fluorine-18 labelled]	–	C57BL/6 mice, male, B16-F10 tumour, spleen	intravenous, 2 h	–	tissue uptake	0.34 ± 0.07 %ID/g
O[C@H]1CCCN[C@@H]1CCCn1cnc2c(Cl)c(Cl)ccc21	–	human, plasma	oral, 500 mg, single dose, healthy volunteers	–	half-life	7.8 h
CCc1cccc(C)c1N(C(=O)CCl)C(C)COC (centres unmarked)	LC-MS/MS	herbicide solution	2 h, 40 °C, added: 254 nm UV exposure	–	remaining amount	25 ± 15.9%
CC[C@H](C)[C@H](NC(=O)[C@H](CCCCN)NC(=O)[C@H](CCCCN)NC(=O)[C@H](CC(C)C)NC(=O)[C@@H](NC(=O)[C@H](CCCCN)NC(=O)[C@H](C)NC(=O)[C@H](C)NC(=O)[C@@H](NC(=O)CNC(=O)[C@H](C)NC(=O)[C@@H](NC(=O)[C@H](CCCCN)NC(=O)[C@@H]1CCCN1C(=O)[C@H](Cc1ccccc1)NC(=O)[C@@H](N)Cc1ccccc1)C(C)C)C(C)C)C(C)C)C(=O)N[C@@H](Cc1ccccc1)C(=O)N[C@H]1CSSC[C@@H](C(=O)O)NC(=O)[C@H](CCCCN)NC(=O)[C@H](CCCCN)NC(=O)[C@H](CO)NC(=O)[C@H]([C@@H](C)CC)NC(=O)[C@H]([C@@H](C)O)NC1=O	haemolysis	horse erythrocytes	2 h, 37 °C	–	HC50	80.8 µM
Oc1ccc2ccc3cccc4ccc1c2c34	HPLC-fluorescence	Wistar rat, male, jejunum	oral, 4 mg/kg PY, 24 h	–	tissue concentration	1300 ± 200 ng/g
O=c1[nH]c(=O)[nH]c(=O)[nH]1	LC-MS/MS	pregnant female rat, serum	oral, 1000 mg/kg/day, 10 days	–	serum concentration	16700 ng/mL and 11300 ng/mL and 10800 ng/mL and 152000 ng/mL and 31100 ng/mL and 41600 ng/mL
O=c1[nH]c(Cc2ccccn2)nc2c1cnn2C1CCOCC1	–	male human, plasma	oral, 2 mg, single dose	–	half-life	0.995 h
[123I]c1cncc(OC[C@@H]2CCN2)c1	SPECT	human, temporal lobe	intravenous bolus, 8.8 mCi	baseline: plasma	tissue/plasma ratio	4.48
COc1ccc(C(=O)NCc2cc(C(C)C)no2)cc1OC1CCN(C)CC1	–	male Sprague-Dawley rat, plasma	intravenous, 1 mg/kg, 15 min	–	concentration	129 ng/mL
CC(=O)N[C@@H](Cc1c[nH]c2ccccc12)C(=O)N[C@H](C(=O)N[C@@H](Cc1ccccc1)C(=O)N[C@@H](CC(N)=O)C(=O)N1CCC[C@H]1C(=O)N[C@@H](C)C(=O)N[C@H](C(=O)NCC(=O)N[C@@H](CCCCN)C(=O)N[C@@H](Cc1ccccc1)C(=O)N[C@@H](CCCCN)C(=O)N[C@@H](Cc1c[nH]c2ccccc12)C(=O)N[C@H](C(=O)NCC(N)=O)[C@@H](C)O)[C@@H](C)O)[C@@H](C)O	circular dichroism	phosphate buffer	pH 6.5	–	Tm	30.3 ± 0.1 °C
CCCCCOc1ccc(-c2ccc(-c3ccc(C(=O)N[C@H]4C[C@@H](O)[C@@H](O)NC(=O)[C@@H]5[C@@H](O)[C@@H](C)CN5C(=O)[C@H]([C@@H](C)O)NC(=O)[C@H]([C@H](O)[C@@H](O)c5ccc(O)cc5)NC(=O)[C@@H]5C[C@@H](O)CN5C(=O)[C@H]([C@@H](C)O)NC4=O)cc3)cc2)cc1	population PK model	patients aged 5 to < sample A years	intravenous, 3.0 mg/kg loading, 1.5 mg/kg once daily, mean, weight-corrected	–	Vss	0.75 L/kg
O=c1c(O[C@@H]2O[C@H](CO)[C@@H](O)[C@H](O)[C@H]2O)c(-c2ccc(O)c(O)c2)oc2cc(O)cc(O)c12	–	Sprague-Dawley rat	intravenous, 5 mg/kg, 7 days, added: oral ciclosporin 10 mg/kg	baseline: control	ciclosporin Cmax decrease	33.8%
COc1ccc(C[C@@H]2NC(=O)[C@H]([C@@H](C)O)NC(=O)[C@@H]3[C@@H]4CCN3C(=O)[C@@H]3Cc5cn(c6ccc(F)cc56)CCCCCCN(Cc5ccc(cc5)CCNC(=O)[C@]5(C)CCCN5C2=O)C(=O)CCC(=O)N[C@@H](C)C(=O)N[C@H](CNC(=O)CCCCC[N+](C)(C)C)C(=O)N[C@@H](Cc2cccc(c2)CNC(=O)CO4)C(=O)N3)cc1	–	fasted healthy humans, plasma	oral, 300 mg single dose, with 1800 mg Labrasol, geometric mean	–	CL/F	1410 mL/min
CC(C)C[C@@H]1NC(=O)[C@@H]2CSSC[C@@H](C(=O)NCC(N)=O)NC(=O)[C@H](Cc3ccccc3)NC(=O)CNC(=O)[C@H](CC(N)=O)NC(=O)[C@@H]3CCCN3C(=O)CNC(=O)[C@@H]3CSSC[C@H](NC(=O)[C@H](CO)NC(=O)[C@H]([C@@H](C)O)NC(=O)[C@@H]4CCCN4C(=O)[C@H](C)NC(=O)[C@H](Cc4c[nH]c5ccccc45)NC(=O)[C@H](CC(=O)O)NC(=O)CNC(=O)[C@H](CCCNC(=N)N)NC(=O)CNC(=O)[C@H](CCC(N)=O)NC(=O)[C@@H]4CCCN4C(=O)[C@@H](NC(=O)CNC(=O)c4ccc(F)cc4)CSSC[C@H](NC(=O)CNC(=O)[C@H](C)NC1=O)C(=O)N[C@@H](C(C)C)C(=O)N3)C(=O)N[C@@H](CO)C(=O)N[C@@H](CCC(N)=O)C(=O)N[C@@H](CC(=O)O)C(=O)N[C@@H](CO)C(=O)N[C@@H](CC(=O)O)C(=O)N2 [fluorine-18 labelled]	biodistribution	nude mouse, U-87 MG xenograft, tumour	intravenous, 740 kBq, 0.5 h	–	tumour uptake	1.9 ± 1.15 %ID/g
O=C(N[C@@H](Cn1ccnc1)c1ccc(-c2ccc(F)cc2)cc1F)c1ccc(-c2nnc(-c3ccccc3)o2)cc1	–	mouse, plasma	oral, 25 mg/kg, DGAT formulation	–	AUC	159 ng·h/mL
CC(C)C[C@@H](NC(=O)[C@@H](Cc1ccccc1)NC(=O)[C@H](N)Cc1ccccc1)C(=O)N[C@H](CCCCN)C(=O)N1CCC(N)(C(=O)O)CC1	refers to: total radioactivity	healthy human subjects	intravenous, time not given	–	dose recovered in feces	11.3%
CN[C@@](C)(C[18F])C(=O)O	–	SCID mouse U87 xenograft	120 min post injection	–	tumour uptake	5.1 ± 1.1 %ID/g
C#Cc1cccc2c1[nH]c1cnc(C(=O)OC(C)(C)C)cc12	–	Wistar rat, brain	intraperitoneal, 10 mg/kg daily for 4 days, 20 min after last dose	–	brain concentration	89.9 ± 24.6 nM
Cn1c(N)nc2ncc(-c3ccccc3)cc21	–	human	4900 ng oral, time not given	baseline: dose	urinary recovery after acid hydrolysis	< 3%
Cc1c(P(=S)(c2ccccc2)c2ccccc2)n2ccccc2[n+]1C/C=C/c1ccccc1	–	mouse, brain	intraperitoneal, 10 mg/kg, 12 h	–	concentration	43 ng/g
CC(C)C[C@H](NC(=O)[C@H](CCC(=O)O)NC(=O)[C@H](CCC(=O)O)NC(=O)[C@H](CC(=O)O)NC(=O)[C@H](CCC(=O)O)NC(=O)[C@H](CCC(=O)O)NC(=O)[C@H](CCC(=O)O)NC(=O)[C@@H](N)CC(=O)O)C(=O)O	–	rat, CSF	subcutaneous, 11.0 mg/kg, 60 min	–	concentration	18 ng/mL
N[C@@H](CC(=O)O)C(=O)N[C@@H](CCC(=O)O)C(=O)NCC(=O)N1CCC[C@H]1C(=O)O	–	ICR mouse, tail bleeding	oral, 450 µmol/kg	baseline: vehicle	thymus index	no effect
N[C@@H](Cc1ccc(F)cc1)C(=O)O	in situ brain perfusion	CF-1 mice, wild type	1 µM, 60-180 s	–	brain uptake clearance Kin	127 mL/100 g/min

For quick reference, copied from above:
SMILES	assay	system	setting	how to read	quantity	result
Cc1c(P(=S)(c2ccccc2)c2ccccc2)n2ccccc2[n+]1C/C=C/c1ccccc1	–	mouse, brain	intraperitoneal, 10 mg/kg, 12 h	–	concentration	43 ng/g
O=C(N[C@@H](Cn1ccnc1)c1ccc(-c2ccc(F)cc2)cc1F)c1ccc(-c2nnc(-c3ccccc3)o2)cc1	–	mouse, plasma	oral, 25 mg/kg, DGAT formulation	–	AUC	159 ng·h/mL
O=c1[nH]c(Cc2ccccn2)nc2c1cnn2C1CCOCC1	–	male human, plasma	oral, 2 mg, single dose	–	half-life	0.995 h
